Experimental data from different studies.
Every numbered part comes from another study and shows a few of its results, in no order.

Series 1
Target: Interferon regulatory factor 5, full length, phosphomimetic (IRF5, Homo sapiens, UniProt Q13568-2, residues 1-514, S451D/S453D/S456D/S462D)
Method: protein-binding microarray
Molecule type: double-stranded DNA, one strand shown
Matrix: in vitro
Tested at: 940 nM top
Setting: 60-bp whole probe
Together with: salmon DNA 0.4 mg/ml
Reference: random background probes
Reading: higher = stronger binding
Shared flanks, not repeated: GCCTAGCAC … GTCTTGATTCGCTTGACGCTGCTG
Sequence | fitted relative affinity
TTAGGTATCGGTTTCTGTTAGTGCTAG | 10.1 z-score
GACGGACTGGGACTGCGGACGTGCTAG | -0.693 z-score
GACGGTATCGGGCTGGGGACGTGCTAG | 3.14 z-score
TTGGGTATCCTTTTCCTTTAGTGCTAG | 0.66 z-score
TTTGGAGTCATTCTCAACCCGTGCTAG | 0.0475 z-score
GACGGTTTCGGTCGCGGGACGTGCTAG | 13.6 z-score
TAGTTTTACTTTCTATGTCTGTGCTAG | 3.29 z-score
TCATATATGTGATTAAAACTGTGCTAG | 0.274 z-score
TTAGGTCTCGGTTTAGGTTAGTGCTAG | 6.13 z-score
TTAAATATCGGGACTGGATTAGTGCTA | -0.27 z-score
TTTTTTCTACTTCTCTTTTGGTGCTAG | 1.94 z-score
TTAGGTTTCCTTTTTCTTTAGTGCTAG | 2.58 z-score
TTAGGTTTCCTACTGCTTTTGTGCTAG | 0.604 z-score
CATTATTTCAATGCAAGGTGGTGCTAG | 0.241 z-score
GCCGGTTTCGACTTTCGGGACGTGCTA | 8.52 z-score
AGGCCTCTGGGATCCCAGTCGGTGCTA | -0.62 z-score
GACGGTTTCCTTATCCTTACGTGCTAG | 1.58 z-score
TCATTTGTCACTCTCAGACTGTGCTAG | 0.956 z-score
TCAAGCCTCTGTTTTGAACTGTGCTAG | -0.532 z-score

Series 2
Target: RING finger protein unkempt homolog, zinc fingers 1-6, GST-SBP tag (UNK, Homo sapiens, UniProt Q9C0B0, residues 30-357)
Method: RNA Bind-n-Seq
Molecule type: RNA
Matrix: in vitro
Tested at: not given
Setting: RNA with constant flanks, human and mouse sites, ends assumed
Reference: input RNA pool
Reading: higher = stronger binding
Shared flanks, not repeated: GGGAGUUCUACAGUCCGACGAUC … CAACAGAGGAUUGAGCAUCA
Construct (chain): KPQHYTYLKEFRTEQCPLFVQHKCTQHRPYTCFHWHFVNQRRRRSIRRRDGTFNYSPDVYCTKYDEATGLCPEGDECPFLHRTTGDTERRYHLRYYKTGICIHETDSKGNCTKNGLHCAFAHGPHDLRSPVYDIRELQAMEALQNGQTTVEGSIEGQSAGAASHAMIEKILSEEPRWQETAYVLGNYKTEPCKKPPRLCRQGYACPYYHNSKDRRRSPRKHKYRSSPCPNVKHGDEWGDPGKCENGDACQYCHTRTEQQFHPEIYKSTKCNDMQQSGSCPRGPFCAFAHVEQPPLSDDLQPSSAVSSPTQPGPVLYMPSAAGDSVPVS
Sequence | bound/input enrichment [ratio]
UGUGAACAGAAAAGAGGCAAAGAUAAUAAAGCUAUUAUUGCAUCAAAUAUCAUGUACAUAGUAGGUCAAUACCCACGUUUUUUGAGAGCUCACUGGAAAUUUCUGAAGACUGUAGUUAAC | 0.376
GAGCUUAUCUGCAAGAUGGCUGCCUGCCCAGAGAAGCUAGACCUGAACCUGGCGGCAGCUGUGCAUAAGGAGAUGUUCAUCAUGGUGCAAGAAGAGCGGCGUCUACGAAAGGCCCUGCUG | 0.112
CAAACAUGGCCUCAUUGGAAAGGACCAGCCAGGUCUGGUGUGGAGGUCCUAUUUAAUGAAUUAGAAAUUCCCGUGGAAGAAUACUCCUUUGGUAGAUCAAAGAUAUUCAUCCGAAACCCA | 0.429
GAAAGGGACAGGUUCAUGCUUUGUGGAAGAAAACACAUAGGAGGGAUUUAGUAUGCAGGAAAGAGGUUUUCUACAAAUUGAGUUUUGCUUUUAUUGCCCGCAGUAGAUAGAUAUUUAGAA | 24.1
AGUGUUCAUACUGACUGGUUACUGGAUCUUUAUGCUGGAAAUAUAAAGACAUUGCAGAAACUCCCACACAUUCUUAAGGAACUGCCUGAGAAUUUGAAAGUGUGUCCUGGGGUACACACU | 0.232
CAUGCCCACCCACUCAACCCACUGUGGGUCACAUUGCUCACAUCUUUUUAAUCUUUGUUCCUUUCCUGCCUCCAUUUCAAGAGCUGGGUUUGUAAGCCCUCUUAUGCCUUCAAUGCACUU | 0.483
UUUGUGGUAACUUGAGAUUCAAGACAAGAGCUGUUAUGCUGUUUCCUAGCUAGGAGCAGGCUUGUGGCAGCCUGAUUCGGGGCUGACCUUUCAAACCCAGAGGGUUGCUGGUCCUGCACA | 0.0624
GCCUGCCGACCUUUGACCAUAACGGAAUUAUAUCACGCAGUAUGGACCAAAAACAUGUCGUUAACUUUGGAAGAUUUUCAACGCAAGUUAGAUAUCCUCUCCAAACUUCUUGUUGAUGGA | 0.159

Series 3
Target: Fragile X messenger ribonucleoprotein 1, C-terminal low-complexity region (Fmr1, Mus musculus, UniProt P35922)
Method: RNA Bind-n-Seq
Molecule type: RNA
Matrix: in vitro
Tested at: 200 nM
Setting: whole 134-nt RNA, ends assumed
Together with: 150 mM LiCl
Reference: input library
Reading: higher = stronger binding
Library: 7-deaza-guanosine replaces G
Shared flanks, not repeated: GGGAGUUCUACAGUCCGACGAUC … UGGAAUUCUCGGGUGUCAAGG
Sequence | log2 enrichment
UCAAGUCCUGUGCUACACAUCGUAUGUACCGAAUCGGAAAGGAAAAAGGUUUGGAAAGUAUUAUGUUACGCCGUUCGGAUCUGCACUUCC | -2.01
UGGGAGGUGGAUUUUGUUUAUUUUUUUAGGUCAUUUCCAGGGGUGGGAAUUUUUUUUUAAUAUGUGUCAUGAAUAAAGUUGUUUUUGAAA | 0.498
UCCUGUGCUACACAUCGUAUGUACCGAAUCGGGUUUGGGAAAAAAAGGGAAAAAAAGGGAAAGUAUUAUGUUACGCCGUUCGGAUCUGCA | 0.215
GUCCUGUGCUACACAUCGUAUGUACCGAAUCGGGAAAAAAGGAAAAAAGGAAAAAAGGGAAAGUAUUAUGUUACGCCGUUCGGAUCUGCA | -0.0238
UGGCCCUGGUGGCAAGCGGGGAGGAAGAGGUGGCCUCAUGGAUCGUGGUGGUCCCGGUGGAAUGUUCAGAGGUGGCCGUGGUGGAGACAG | 0.413
GCAGGAAGUAAAAACAAAUGGAAAUGCUUCGGAUAGUGGAAAGGGUGGGGGUUGCUAAGGAAAGGGUGGGAUGGGAGUGGGUAAAGAGUU | 1.38
GUCCUGUGCUACACAUCGUAUGUACCGAAUCGGGGCCCCCGGGCCCCCGGGGCCCCCGGAAAGUAUUAUGUUACGCCGUUCGGAUCUGCA | -2.43
CAAGUCCUGUGCUACACAUCGUAUGUACCGAAUCGGUUUGGAAAAAAAGGAAAGGAAAGUAUUAUGUUACGCCGUUCGGAUCUGCACUUC | -1.65

Series 4
Target: Histone acetyltransferase KAT6A, winged helix 2, GST fusion (KAT6A, Homo sapiens, UniProt Q92794, residues 85-181)
Method: protein binding microarray
Molecule type: double-stranded DNA, one strand shown
Matrix: in vitro
Tested at: not given
Setting: 8-mer, flanks averaged, mean of 2 arrays, mostly near background
Reference: not given
Reading: higher = stronger binding
Target sequence (chain): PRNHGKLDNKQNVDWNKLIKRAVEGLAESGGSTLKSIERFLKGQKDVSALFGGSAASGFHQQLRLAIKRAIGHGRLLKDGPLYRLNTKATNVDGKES
Sequence | E-score
GGACGAGA | 0.153
TATCCCCA | -0.123
ATCCGCTG | 0.0565
CAATATTC | -0.156
ACAACAAT | -0.0712
CAATTGTA | -0.103
AAGTTCTA | -0.0826
ATTCCATG | -0.16
CTACCGAC | -0.00119
ACAAAGAC | 0.0497
ATCCCTGG | 0.068
GCTTACAA | 0.0717
CACAGTCC | -0.224
TCGCCAAA | 0.0971
CCGGCTCG | 0.267
GATACCCA | 0.0692
AGGTAAAT | -0.0364
CTAAGGTA | 0.00851
GAAACTGC | 0.0152

Further values, each from its own experiment
Substance | tested on | test | system | setting | scale | endpoint | result
PhoQ, residues 284 288 289 292 302 303 SCCLKL | PhoP, residues 12 14 15 18 19 SMASL (Escherichia coli, UniProt P23836) | Sort-seq, item: YFP reporter | E. coli | PhoQ-PhoP variant library, together with: 10 µM Mg2+ | reference: high Mg2+ state, higher = stronger signaling | fold induction | 4.13
GSPAKKLFTSTGL | Saccharomyces cerevisiae | binding, competitive growth deep sequencing | peptide, cyclin D3-Cln2 fusion strain | concentration not given, peptide library 1 | direction not given | growth enrichment score | -0.273

A few entries again (series 1):
Sequence | fitted relative affinity
GACGGTTTCGGTCGCGGGACGTGCTAG | 13.6 z-score
TAGTTTTACTTTCTATGTCTGTGCTAG | 3.29 z-score
TCATATATGTGATTAAAACTGTGCTAG | 0.274 z-score
TTAGGTCTCGGTTTAGGTTAGTGCTAG | 6.13 z-score
TTAAATATCGGGACTGGATTAGTGCTA | -0.27 z-score
TTTTTTCTACTTCTCTTTTGGTGCTAG | 1.94 z-score
TTAGGTTTCCTTTTTCTTTAGTGCTAG | 2.58 z-score
TTAGGTTTCCTACTGCTTTTGTGCTAG | 0.604 z-score
